Measured values pooled from the literature.
Compare with care: the assays were run in different laboratories.
SRC: Proto-oncogene tyrosine-protein kinase Src (SRC, Homo sapiens, UniProt P12931)

The inhibition of Cc1[nH]nc2c1N=C(c1ccccc1Cl)c1cnc(N3CCOCC3)cc1N2 is reported as 29.7% (SRC; enzyme activity, inhibitor; 0.5 µM).
O=C(Cc1ccc(OCc2ccccc2)cc1)NC1(C(=O)O)CCN(C(=O)c2ccc(-c3cccc(Cl)c3)cc2)CC1 — result for “activity vs control”: 132% (SRC; enzyme activity, inhibitor; 10 µM).
For C[C@H]1CN(C(=O)c2cn(-c3ccnc(N)n3)c3cc(C#CC4(O)CCCCC4)ccc23)CCN1, the inhibition was 2% (SRC; enzyme activity, inhibitor, FRET; 1 µM).
COc1cc(OC)c(F)c(/C=C/c2cnc3ccn(S(=O)(=O)c4cn(CCF)cn4)c3n2)c1F gave an inhibition of 2.4% (SRC; 1000 nM).
Cc1cccc(-c2ccc3nc(NC(=O)C4CCCCC4)nn3c2)c1 has a remaining activity of 88% (SRC; enzyme activity, Dundee kinase panel; 10 µM).
The inhibition of C=CC(=O)Nc1cccc(-c2cnc3[nH]cc(C(=O)NC(C)(C)C)c3n2)c1 is reported as 12% (SRC; kinase activity; 0.1 µM).
The remaining activity of Cc1cccc(-c2ccc3nc(NC(=O)C4CCOCC4)nn3c2)c1 is reported as 93% (SRC; enzyme activity, Dundee kinase panel; 10 µM).
For O=c1c(-c2ccc(Cl)c(CN3CCOCC3)c2)coc2cc(O)ccc12, the remaining activity was 97% (SRC; enzyme activity, inhibitor; 1 µM).
CN1CCN(Cc2ccc(NC(=O)c3cccc(C#Cc4cnc(N)c5ncccc45)c3)cc2C(F)(F)F)CC1 gave a remaining binding of 0.3% (SRC; cell-free assay, competition with immobilised ligand; 0.5 µM).
The inhibition of NC(=O)C[C@H]1CCc2sc3ncnc(O[C@H]4CC[C@H](N5CCOCC5)CC4)c3c21 is reported as 22% (SRC; enzyme activity, inhibitor; 10 µM).
Cc1ccc(C(=O)Nc2ccc(CN3CCN(C)CC3)c(C(F)(F)F)c2)cc1C#Cc1cnc2cccnn12 gave an upper asymptote of 12.5 (SRC; target engagement, NanoBRET; human cells).
With COc1cc(Nc2nccc(-c3cnn4nc(OC)ccc34)n2)cc(C(F)(F)F)c1 the remaining binding was 100% (SRC; binding, competition with immobilised ligand; 1 µM).
Nc1ncc2c(n1)-c1c([nH]c3ccc(C4=CCOCC4)cc13)CCC2 gave a remaining binding of 93% (SRC; binding, competition with immobilised ligand; 1 µM).
With O=C=[N][Ru-4]123([n]4c5ccc(O)cc5c5c6c(c7cc(F)c[n+]1c7c54)C(=O)NC6=O)[S+]1CC[S+]2CC[S+]3CC1 (stereo not shown) the remaining activity was 94% (SRC (Homo sapiens, UniProt P12931, T341M); enzyme activity; 100 nM, human enzyme, together with: 10 µM ATP; relative to: untreated).
The remaining activity of COc1ccc(NC(=O)Nc2ccc3c(c2)C(=O)N(C(C)CO)CC(C)C(CN(C)Cc2ccc4c(c2)OCO4)O3)cc1 (stereo not shown) is reported as 98% (SRC; kinase activity, KinaseProfiler; 0.03 µM, species human; relative to: control).
For C=CC(=O)N1CCCC(n2c(=O)c3ncccc3n(Cc3ccc(Oc4ccccc4)cc3)c2=O)C1 (stereo not shown), the remaining binding was 94% (SRC; cell-free assay, competition with immobilised ligand; 1 µM).
With COc1ccc(O)cc1-c1c[nH]c2ncc(-c3cncc(C(=O)N(C)C)c3)cc12 the inhibition was -6.9% (SRC; binding, competition with immobilised ligand; 0.2 µM).
Cc1cccc(O[C@H]2CCC[C@@H](C(C)CNCc3ccncc3)C2)c1 (relative stereo) has an inhibition of 4% (SRC; enzyme activity, inhibitor; 1 µM).
Nc1ncc(-c2cc(-c3cnn(CC(F)(F)F)c3)ncc2F)nc1C(=O)NC1CNCC(F)C1 (stereo not shown) gave a remaining activity of 77.5% (SRC; enzyme activity; 1 µM; relative to: DMSO control).
With CC(=O)N1c2ccc(-c3ccc(CNC(=O)c4cn5cc(-c6cnc(N)nc6)nc(N6CCOCC6)c5n4)cc3)cc2CC[C@@H]1C the remaining binding was 59% (SRC; binding, competition with immobilised ligand; 10 µM).
With CNC(=O)C1CCN(c2cc(C)c(F)cc2NC(=O)c2ccc(-c3cc(O)ccc3C)c(C)c2)CC1 the remaining binding was 0.1% (SRC; binding, competition with immobilised ligand; 1 µM).
With CCn1cc(C(=O)O)c(=O)c2c(N)c(F)c(NC3CCCCC3)cc21 the inhibition was -2.7% (Proto-oncogene tyrosine-protein kinase Src, N1 isoform (SRC, Homo sapiens, UniProt P12931); kinase activity; 0.1 µM, together with: ATP at Km).
For COc1c(Cl)cccc1Nc1c(-c2ccncc2C#C[C@@]2(C)CCCN2C(=O)/C=C/CN(C)C)[nH]c2c1C(=O)NCC2, the remaining binding was 100% (SRC; cell-free assay, competition with immobilised ligand; 3 µM).
With CN1CCN(c2ccc(Nc3ncc(Cl)c(Nc4ccccc4P(C)(C)=O)n3)cc2Br)CC1 the inhibition was 71.7% (SRC; enzyme activity, inhibitor; 0.1 µM).
Cc1cnc2nc1Nc1cccc(c1)COC/C=C/COCc1cc(ccc1OCCN1CCOCC1)N2 gave a remaining binding of 33% (SRC; binding, competition with immobilised ligand; 0.1 µM).

Some of these lines once more:
O=C(Cc1ccc(OCc2ccccc2)cc1)NC1(C(=O)O)CCN(C(=O)c2ccc(-c3cccc(Cl)c3)cc2)CC1 — result for “activity vs control”: 132% (SRC; enzyme activity, inhibitor; 10 µM).
For C[C@H]1CN(C(=O)c2cn(-c3ccnc(N)n3)c3cc(C#CC4(O)CCCCC4)ccc23)CCN1, the inhibition was 2% (SRC; enzyme activity, inhibitor, FRET; 1 µM).
COc1cc(OC)c(F)c(/C=C/c2cnc3ccn(S(=O)(=O)c4cn(CCF)cn4)c3n2)c1F gave an inhibition of 2.4% (SRC; 1000 nM).
